{"data": "Assay results of several laboratories", "B1": "human DnaJ homolog DNAJC7; sequence looked up; chain AAAAECDVVMAATEPELLDDQEAKREAETFKEQGNAYYAKKDYNEAYNYYTKAIDMCPKNASYYGNRAATLMMLGRFREALGDAQQSVRLDDSFVRGHLREGKCHLSLGNAMAACRSFQRALELDHKNAQAQQEFKNANAVMEYEKIAETDFEKRDFRKVVFCMDRALEFAPACHRFKILKAECLAMLGRYPEAQSVASDILRMDSTNADALYVRGLCLYYEDCIEKAVQFFVQALRMAPDHEKACIACRNAKALKAKKEDGNKAFKEGNYKLAYELYTEALGIDPNNIKTNAKLYCNRGTVNSKLRKLDDAIEDCTNAVKLDDTYIKAYLRRAQCYMDTEQYEEAVRDYEKVYQTEKTKEHKQLLKNAQLELKKSKRKDYYKILGVDKNASEDEIKKAYRKRALMHHPDRHSGASAEVQKEEEKKFKEVGEAFTILSDPKKKTRYDSGQDLDEEGMNMGDFDPNNIFKAFFGGPGGFSFEASGPGNFFFQFG", "B2": "human adenosylhomocysteinase; sequence looked up; chain SDKLPYKVADIGLAAWGRKALDIAENEMPGLMRMRERYSASKPLKGARIAGCLHMTVETAVLIETLVTLGAEVQWSSCNIFSTQDHAAAAIAKAGIPVYAWKGETDEEYLWCIEQTLYFKDGPLNMILDDGGDLTNLIHTKYPQLLPGIRGISEETTTGVHNLYKMMANGILKVPAINVNDSVTKSKFDNLYGCRESLIDGIKRATDVMIAGKVAVVAGYGDVGKGCAQALRGFGARVIITEIDPINALQAAMEGYEVTTMDEACQEGNIFVTTTGCIDIILGRHFEQMKDDAIVCNIGHFDVEIDVKWLNENAVEKVNIKPQVDRYRLKNGRRIILLAEGRLVNLGCAMGHPSFVMSNSFTNQVMAQIELWTHPDKYPVGVHFLPKKLDEAVAEAHLGKLNVKLTKLTEKQAQYLGMSCDGPFKPDHYRY", "note": "Protocols differ between the studies behind these lines. Values joined by “and” are separate records of one study, mostly repeats; a detail may differ."}
{"Substance": "polymyxin B", "tested on": "Staphylococcus aureus", "assay": "broth microdilution", "system": "MRSA USA300-0114, Mueller-Hinton broth", "conditions": "24 h, 37 °C", "measurement": "MIC", "value": "63 µg/mL"}
{"Substance": "gentamicin sulfate", "tested on": "Staphylococcus aureus", "system": "ATCC 35923", "conditions": "18 h, 37 °C, with: LED light 1.57 mW, 10 min", "measurement": "MIC", "value": "1 µM"}
{"Substance": "colistin", "tested on": "Staphylococcus aureus", "system": "ATCC 25922, RPMI 1640 10% FBS", "conditions": "18 to 24 h, 37 °C", "measurement": "MIC", "value": "0.98 µM"}
{"Substance": "Polymyxin B", "tested on": "Staphylococcus aureus", "assay": "broth microdilution", "system": "Newman (MSSA)", "measurement": "MIC", "value": "> 32 µg/mL"}
{"Substance": "Polymyxin B", "tested on": "Staphylococcus aureus", "system": "CGMCC 1.9", "conditions": "concentration not given, 18 h, 37 °C", "measurement": "inhibition zone diameter", "value": "11 mm"}
{"Substance": "B1 (human DnaJ homolog DNAJC7)", "tested on": "CYB5R4 knockout human cells", "assay": "PP4 interaction, 3xFLAG-PP4C IP-MS", "conditions": "concentration not given", "how to read": "baseline: CYB5R4 KO over parental", "measurement": "log2 fold change", "value": -1.71}
{"Substance": "Polymyxin B", "tested on": "Staphylococcus aureus", "system": "CMCC 26003", "conditions": "concentration not given", "measurement": "superoxide dismutase activity", "value": "0.273 U and 0.259 U and 0.284 U"}
{"Substance": "B2 (human adenosylhomocysteinase)", "tested on": "CYB5R4 knockout human cells", "assay": "PP4 interaction, 3xFLAG-PP4C IP-MS", "conditions": "concentration not given", "how to read": "baseline: CYB5R4 KO over parental", "measurement": "log2 fold change", "value": -0.41}
{"Substance": "Polymyxin B", "tested on": "Staphylococcus aureus", "conditions": "concentration not given, with: KCl 4.5 mM", "how to read": "baseline: no added salt", "measurement": "MIC fold change", "value": "2 fold"}
{"Substance": "benzalkonium chloride", "tested on": "Staphylococcus aureus", "system": "ATCC 33591 HA-MRSA", "conditions": "tested up to 1 µM", "measurement": "MIC", "value": "4 µM"}
{"note": "For quick reference, copied from above:"}
{"Substance": "polymyxin B", "tested on": "Staphylococcus aureus", "assay": "broth microdilution", "system": "MRSA USA300-0114, Mueller-Hinton broth", "conditions": "24 h, 37 °C", "measurement": "MIC", "value": "63 µg/mL"}
